# Experimental data of several laboratories.
# Every numbered part comes from another study and shows a few of its results, in no order. Substitutions count along the parent as printed.

# Set 1 — target: CCNA1, cyclin fold, Cln2 fusion (human); technique: yeast growth competition, sequencing; medium: yeast; notes: weak parent motif; reference: not given; reading: higher = stronger binding
# Starting sequence: CDC25A docking peptide (human); PPHRRRLLFACSP; partner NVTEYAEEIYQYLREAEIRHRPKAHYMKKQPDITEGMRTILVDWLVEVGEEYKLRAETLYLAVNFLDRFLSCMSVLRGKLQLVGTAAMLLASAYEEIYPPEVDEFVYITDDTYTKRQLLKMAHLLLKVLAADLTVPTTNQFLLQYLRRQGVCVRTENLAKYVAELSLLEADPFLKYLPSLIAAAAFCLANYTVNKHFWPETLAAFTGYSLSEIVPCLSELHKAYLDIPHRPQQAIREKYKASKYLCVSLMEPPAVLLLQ
Substitution,normalised enrichment score
PPHRRRSLFACSP [L7S],0.126
PPHIRRLLFACSP [R4I],0.375
PPVRRRLLFACSP [H3V],0.453
PPHRYRLLFACSP [R5Y],0.073
PPHRRRLLFACYP [S12Y],0.275
PPHRRKLLFACSP [R6K],0.241
PPHRPRLLFACSP [R5P],0.174
PPHRRILLFACSP [R6I],-0.168
PHHRRRLLFACSP [P2H],0.295
PPHRRRLLFYCSP [A10Y],0.374
FPHRRRLLFACSP [P1F],0.425
PLHRRRLLFACSP [P2L],0.0791
PIHRRRLLFACSP [P2I],0.241
PPHRFRLLFACSP [R5F],0.101

# Set 2 — technique: RNA Bind-n-Seq; form: RNA; medium: in vitro; tested at: 365 nM; reference: no-protein control; reading: higher = stronger binding
# Target: RNA binding protein fox-1 homolog 2, RRM domain, GST-SBP tag (RBFOX2, Homo sapiens, UniProt O43251-10, residues 100-194)
# Notes: natural RNA segment, single round, ends assumed
# Target sequence (chain): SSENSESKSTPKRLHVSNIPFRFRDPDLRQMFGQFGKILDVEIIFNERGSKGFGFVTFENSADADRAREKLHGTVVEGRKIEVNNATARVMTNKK
Sequence,RBNS enrichment (R)
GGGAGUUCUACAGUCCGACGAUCCACACAGCCCUCUGGGUGCUUGGGAACUAGCUUCAGGCACAGCCUGAUUCUGGUGAUCCAGUGAUCUAUGGAAGUCGUGUCUUACUCCAGGUGAAGGGGGAAAAAAAAAGUGGAAUUCUCGGGUGCCAA,0.51
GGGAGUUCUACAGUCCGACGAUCCCGCCUCCCUGGGACCUGGAUUGGGUCAGAUGCCUGUCCUUGGAGGGGACAAGGUUGACUGCUUAGGAGGCGCGACGCACAGGGCUGCCAGGCCUGGCCCCUCUCUGGGAUGGAAUUCUCGGGUGCCAA,0.474
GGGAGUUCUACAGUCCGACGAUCCAGGUGAUAGCUGGUCUCCUGCCUCCACCUCCUGAGUGCUGGGGUUACAGGUGAUCGCUGGUCUCCUGCCUCCACCUCCUGAGUGCUGGGGUUACAGGUGAUCGCUGGUCUGGAAUUCUCGGGUGCCAA,0.22
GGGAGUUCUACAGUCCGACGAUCCCAGCUUGGGCAACGUAGUGAGACCCCUAUCUCUACAAAAAAUAAAAAAAUUAGCUGGGUGUGAUGGCACACACCUGUUGUCCCAGCUACUCAAGAAGCUGAGAUGGGAGUGGAAUUCUCGGGUGCCAA,0.375
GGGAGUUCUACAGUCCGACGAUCGACUGUAAAUUGCGAUAAGGAAAUGUACUGAUUGCCAAUACACCCCACCCUCAUUACAUCAUCAGGACUUGAAGCCAAGGGUUAACCCAGCAAGCUACAAAGAGGGUGUGUGGAAUUCUCGGGUGCCAA,0.242
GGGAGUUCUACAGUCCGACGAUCAGCAGCAGUGGUGGCAGCCCCCCCCACAGCUGUGGGCUCCCUCUCUGGGGCAGAGGGGGUACCAGUGAGCUCUCAGCCACUUCCCUCCCAGCCUUGGUGAGCUCCAAGUUUGGAAUUCUCGGGUGCCAA,0.488
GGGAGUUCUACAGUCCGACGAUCUGUGCAGGUGCUGUGGCGGGAAGCACAAAGCGGCCGCGUGACUCAGUUUCCCUCCCUUCUCCCUCCAUCCGCAGCCACAGGGGAACUCGUCUCUUACAUACUCUCAUCUUUGGAAUUCUCGGGUGCCAA,0.62
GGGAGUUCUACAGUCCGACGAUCUUUUAGAAUAAACUCCUGCUUAUAGUAUACUACACAGUUCAAAAGAUGUUUAAAAUGCUUUUGUAUUUACUGCCAUGUAAUUGAAAUAUAUAGAUUAUUGUAACCUUUCAUGGAAUUCUCGGGUGCCAA,0.985

# Set 3 — technique: competition protein-binding microarray; form: double-stranded DNA, one strand shown; medium: in vitro; tested at: 2 µM; added: Pho4 competitor, 0.05 µM; reading: higher = stronger binding
# Target: Centromere-binding protein 1, full length, His-tagged (CBF1, Saccharomyces cerevisiae, UniProt P17106, residues 1-351)
# Sequence of UniProt P17106 (whole entry, looked up): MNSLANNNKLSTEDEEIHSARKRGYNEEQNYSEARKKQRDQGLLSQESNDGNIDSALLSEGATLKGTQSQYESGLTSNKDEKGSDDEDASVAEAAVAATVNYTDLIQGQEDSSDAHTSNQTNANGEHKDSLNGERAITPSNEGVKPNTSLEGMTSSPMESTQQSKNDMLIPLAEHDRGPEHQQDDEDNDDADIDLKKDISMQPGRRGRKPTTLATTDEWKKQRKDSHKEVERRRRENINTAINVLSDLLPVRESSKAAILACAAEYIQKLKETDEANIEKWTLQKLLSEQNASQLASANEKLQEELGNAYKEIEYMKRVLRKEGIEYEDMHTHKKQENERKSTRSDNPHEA
# Notes: whole 60-bp probe, lowest competitor level
Sequence,fluorescence intensity [a.u.]
CATACCCAACCTTGACACGTGTTTTAAGATATTTGTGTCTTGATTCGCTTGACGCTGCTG,1710
TGCGCAACAACTTGGGCAGTGGGTGTATGTCTAGAAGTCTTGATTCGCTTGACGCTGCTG,65
GTCTTGTCTCATTGCGCCGTGGGTGTCCCCACTTCAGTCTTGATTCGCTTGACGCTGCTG,82.7
TAAACCAAGTAAATGACGATGGGAGAAGCAGTACCCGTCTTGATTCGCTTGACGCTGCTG,60.8
CATACCCAACCTTGGAACGTGGGTGAAGATATTTGTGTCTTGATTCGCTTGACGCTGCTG,90.5
AAGAAATATCTGTGAAATGTGACGCTTATAGCATACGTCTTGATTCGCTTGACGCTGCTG,97.6
CCAAGGAAGATGACGTTCGTGATGGCGTCATCAGAAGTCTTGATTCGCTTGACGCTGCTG,67.7
AATTCCTTATGCGGGCCCGGTCAGAACGGATTATAGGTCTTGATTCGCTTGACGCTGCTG,59.9
AGTGCTCCGTTAAAGCCTGTGACAGTAGCAACGACAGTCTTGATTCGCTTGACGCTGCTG,77.5
AAAGCGGTAATTTGTGTTGTGGGTGCAGATATCTATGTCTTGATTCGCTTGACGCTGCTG,71.3
AAATTACTAAGTTTTCACGTGCCCTACCCCGTATGAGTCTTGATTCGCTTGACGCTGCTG,1390
CACACCCAATTTTTGCACGTGCTTTAATAGTAGTTTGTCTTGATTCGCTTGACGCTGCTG,3570
CTTTCCCGATCTTGGTTTGTGGGTGTAGCACATTTGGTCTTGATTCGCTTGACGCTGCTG,77.5

# Further values, each from its own experiment
Molecule,target,assay,test system,setting,scale,quantity,result
"PhoQ, residues 284 288 289 292 302 303 TVTVVA","PhoP, residues 12 14 15 18 19 AQALL (Escherichia coli, UniProt P23836)","Sort-seq, measured: YFP reporter",E. coli,"PhoQ-PhoP variant library, added: 10 µM Mg2+","reference: high Mg2+ state, higher = stronger signaling",fold induction,9.42
